Published values from different studies.
Every numbered part comes from another study and shows a few of its results, in no order. Changes are numbered by the printed parent chain.
Sequence of UniProt Q9C0B0 (30-357, looked up): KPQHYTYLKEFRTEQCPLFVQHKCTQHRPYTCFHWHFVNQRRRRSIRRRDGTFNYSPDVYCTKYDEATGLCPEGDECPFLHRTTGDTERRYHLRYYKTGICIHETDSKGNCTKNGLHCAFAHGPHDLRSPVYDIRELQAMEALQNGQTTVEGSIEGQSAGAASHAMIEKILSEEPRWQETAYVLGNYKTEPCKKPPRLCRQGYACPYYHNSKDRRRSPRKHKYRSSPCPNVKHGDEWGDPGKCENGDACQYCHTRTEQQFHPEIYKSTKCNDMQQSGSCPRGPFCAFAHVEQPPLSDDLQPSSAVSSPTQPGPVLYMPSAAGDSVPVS

Sample 1 — method: protein binding microarray; molecule type: double-stranded DNA, one strand shown; matrix: in vitro; tested at: not given; relative to: not given; reading: higher = stronger binding
Target: Histone acetyltransferase KAT6A, winged helix 2, GST fusion (KAT6A, Homo sapiens, UniProt Q92794, residues 85-181)
Notes: 8-mer, flanks averaged, mean of 2 arrays, mostly near background
Construct (chain): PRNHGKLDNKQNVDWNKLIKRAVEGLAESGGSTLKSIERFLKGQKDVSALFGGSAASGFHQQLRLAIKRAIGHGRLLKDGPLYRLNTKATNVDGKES
The E-score of `GCAGTTTA` is reported as 0.079.
With `ACAGCTGT` the E-score was -0.095.
With `CATGGCTA` the E-score was -0.108.
The E-score of `GACCACTC` is reported as 0.0793.
With `AACCTTCC` the E-score was -0.148.
`ATCTAAAT` gave an E-score of 0.11.
With `AACGTTTC` the E-score was -0.0887.
For `AGCGCCGA`, the E-score was 0.0774.
`GCAGGCAC` has an E-score of 0.0849.
With `TAGAGCGA` the E-score was -0.102.
With `CGGCACTA` the E-score was 0.0263.
For `CCCTCTTA`, the E-score was 0.0677.
`AGTAAGAG` has an E-score of 0.0576.
With `GAGAACGC` the E-score was 0.0817.
For `GGGACCCA`, the E-score was 0.189.
With `CTCGAACC` the E-score was 0.0496.
For `ACTATGTG`, the E-score was -0.132.
With `CGGTAGAA` the E-score was -0.0356.
With `AGCATCCA` the E-score was 0.105.
For `TACGCCTA`, the E-score was -0.0203.
For `AAGACGCC`, the E-score was 0.0175.
The E-score of `TCGTTTCA` is reported as 0.0413.
The E-score of `CCAAGAGA` is reported as 0.0345.

Sample 2 — target: CCNE2, cyclin fold, Cln2 fusion (human); method: yeast growth competition, sequencing; matrix: yeast; notes: strong parent motif; relative to: not given; reading: higher = stronger binding
Starting sequence: WEE1 docking peptide (human); HKTFRKLRLFDTP
`HKTFRKLRLWDTP [F10W]` — result for “normalised enrichment score”: 1.01.
`HDTFRKLRLFDTP [K2D]` — result for “normalised enrichment score”: 0.47.
`HKLFRKLRLFDTP [T3L]` — result for “normalised enrichment score”: 0.21.
For `HKTFRKLRLFDTN [P13N]`, “normalised enrichment score” read 1.49.
`HKTHRKLRLFDTP [F4H]` — result for “normalised enrichment score”: 1.09.
`HKTFHKLRLFDTP [R5H]` — result for “normalised enrichment score”: 1.53.
`HKTFRKLRAFDTP [L9A]` — result for “normalised enrichment score”: 0.595.
For `HKTFIKLRLFDTP [R5I]`, “normalised enrichment score” read 0.642.
Under “normalised enrichment score”, `HGTFRKLRLFDTP [K2G]` is recorded as 0.613.
`HKTPRKLRLFDTP [F4P]`: “normalised enrichment score” 0.512.
Under “normalised enrichment score”, `MKTFRKLRLFDTP [H1M]` is recorded as 0.834.
For `HKTLRKLRLFDTP [F4L]`, “normalised enrichment score” read 0.674.
`NKTFRKLRLFDTP [H1N]` — result for “normalised enrichment score”: 0.566.
`HKTFRKIRLFDTP [L7I]` — result for “normalised enrichment score”: 1.29.
`HKTFRKLRLFATP [D11A]`: “normalised enrichment score” 0.717.
`HKTFRKLRLCDTP [F10C]` — result for “normalised enrichment score”: 0.436.
For `HKTFRMLRLFDTP [K6M]`, “normalised enrichment score” read 0.205.
Under “normalised enrichment score”, `HKTFRQLRLFDTP [K6Q]` is recorded as 0.7.
For `HKTFRKLCLFDTP [R8C]`, “normalised enrichment score” read 0.837.
For `HKTFRKLRYFDTP [L9Y]`, “normalised enrichment score” read 1.31.
`HKTFRKLRLNDTP [F10N]`: “normalised enrichment score” -0.0397.
Under “normalised enrichment score”, `HKTFRKLRLFHTP [D11H]` is recorded as 0.0338.
For `HKTIRKLRLFDTP [F4I]`, “normalised enrichment score” read 0.633.
Under “normalised enrichment score”, `HKTFRKLRLFDTT [P13T]` is recorded as 0.43.
`HKTFRKLALFDTP [R8A]` — result for “normalised enrichment score”: 0.382.

Sample 3 — target: CEBPE, bZIP domain (human); method: DHFR protein complementation; matrix: yeast; relative to: wild-type JUN-FOS pair; reading: higher = stronger binding
Notes: single substitutions, most at no-binding floor
Starting sequence: JUN, bZIP domain (human); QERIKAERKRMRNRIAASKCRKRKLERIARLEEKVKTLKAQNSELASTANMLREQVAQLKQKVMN; partner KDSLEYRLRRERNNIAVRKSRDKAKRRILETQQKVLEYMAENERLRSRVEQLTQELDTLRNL
`A40V` has a binding fitness of -1.22 natural log.
For `Q41K`, the binding fitness was -1.32 natural log.
For `L31E`, the binding fitness was -1.3 natural log.
`E32G` has a binding fitness of -1.39 natural log.
With `K34Q` the binding fitness was -1.02 natural log.
`V35H` gave a binding fitness of -1.44 natural log.
The binding fitness of `A29P` is reported as -1.46 natural log.
`A46D` has a binding fitness of -1.33 natural log.
`Q41N` has a binding fitness of -1.31 natural log.
For `N42A`, the binding fitness was -1.43 natural log.
`E32S` gave a binding fitness of -1.29 natural log.
The binding fitness of `R53G` is reported as -1.09 natural log.
The binding fitness of `K36Q` is reported as -1.24 natural log.
`E32C` has a binding fitness of -1.4 natural log.
The binding fitness of `R30V` is reported as -0.959 natural log.
`M51T` gave a binding fitness of -0.982 natural log.
With `E44C` the binding fitness was -1.34 natural log.
With `A40L` the binding fitness was -1.2 natural log.
For `T37M`, the binding fitness was -0.366 natural log.
The binding fitness of `K39V` is reported as -1.24 natural log.
For `E54N`, the binding fitness was -1.26 natural log.
The binding fitness of `Q58P` is reported as -1.44 natural log.
For `L52W`, the binding fitness was -1.51 natural log.
With `T48E` the binding fitness was -1.28 natural log.
With `T37Q` the binding fitness was -0.872 natural log.

Sample 4 — method: competition protein-binding microarray; molecule type: double-stranded DNA, one strand shown; matrix: in vitro; tested at: 2 µM; together with: Cbf1 competitor, 0.05 µM; reading: higher = stronger binding; all sequences stand within: … GTCTTGATTCGCTTGACGCTGCTG
Target: Phosphate system positive regulatory protein PHO4, full length, GST-tagged (PHO4, Saccharomyces cerevisiae, UniProt P07270, residues 1-312)
Notes: whole 60-bp probe, lowest competitor level
Residues (chain): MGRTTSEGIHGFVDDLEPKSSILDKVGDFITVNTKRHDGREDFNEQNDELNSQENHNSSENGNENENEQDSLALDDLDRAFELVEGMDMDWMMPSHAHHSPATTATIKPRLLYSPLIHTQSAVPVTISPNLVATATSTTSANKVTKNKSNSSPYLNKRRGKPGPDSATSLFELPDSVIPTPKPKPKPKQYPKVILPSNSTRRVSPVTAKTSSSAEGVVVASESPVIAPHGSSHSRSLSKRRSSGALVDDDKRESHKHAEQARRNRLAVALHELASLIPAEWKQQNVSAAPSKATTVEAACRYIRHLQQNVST
With `CATACCCAACCTTGTGTGGTGGGTGAAGATATTTGT` the fluorescence intensity was 6390 a.u.
The fluorescence intensity of `TATTCTAGTTAGCGTCACCTGATGCAGAATTGGCGG` is reported as 3780 a.u.
With `TGCGCAACAACTTGGGCGGTGGGTGTATGTCTAGAA` the fluorescence intensity was 4220 a.u.
For `CGGGGTTAAGTTTGACGCGTGGGTGGCTTGCAGCAG`, the fluorescence intensity was 11600 a.u.
For `TGGTCTCAGTGCTGGCACCTGACGAACTATTCGTAG`, the fluorescence intensity was 4450 a.u.
`GGTAATCCCTAAGAACACATGCCCATAGTGGAAGAT` has a fluorescence intensity of 9830 a.u.
For `ATACCAGCACCAGACAACATGGCTCGGTAACCACCA`, the fluorescence intensity was 5880 a.u.
`CGTCCTAGTGATTGCACCGTGGGTGCCATGAGGAAG` has a fluorescence intensity of 10800 a.u.
The fluorescence intensity of `CTTTCCCGATCTTGGGATGTGGGTGTAGCACATTTG` is reported as 5330 a.u.
`GAAACAGCTGCTACCCACGATGTAGTGTTTGAAACA` has a fluorescence intensity of 9460 a.u.
`CCAACCGGTGTCCACCGCGTGGTCCAGGCGACTTAT` gave a fluorescence intensity of 10100 a.u.
`AAGATGGCAGACGACCACGTGTAGGATCCCTAGTTC` has a fluorescence intensity of 17200 a.u.
`CTTTCCCGATCTTTTCACGTGGTCTTAGCACATTTG` gave a fluorescence intensity of 15400 a.u.
For `ATACTTGCATTCGACCACGTGCTTTGGCATGTATCT`, the fluorescence intensity was 16000 a.u.
With `TTTCGAACGGAGCCGTGCGTGCTTTGAGTTTTTTGA` the fluorescence intensity was 9200 a.u.
With `GATCGATCGAATTTCCCCGTGCCGAAATTGTTCTGC` the fluorescence intensity was 8000 a.u.
With `CTAACGAAGGTTTGTCACCCAACTTACAAGCCAAGT` the fluorescence intensity was 3330 a.u.
For `AAGGCAACAAGCCGACACGTGGAGGAAAGCCAGGAG`, the fluorescence intensity was 16000 a.u.
`AATTGAAACCTCCGTCACGTTTTCTGATAATGTTGC` gave a fluorescence intensity of 12800 a.u.
With `TCGGTGGGTAAGCGTCACAATTTCGTCCACCAGTAC` the fluorescence intensity was 4420 a.u.
`TTTGTGGCTTAGCATCTCGTGAGGATATGGAAGACT` has a fluorescence intensity of 5430 a.u.
For `GATCGGCTACGCAACTACGTGCATCGCTCCGTTGGA`, the fluorescence intensity was 6900 a.u.
`AAATTACTAAGTTGATATGTGGGTGACGCCGTATGA` gave a fluorescence intensity of 4010 a.u.
`TGCGCAACAACTTGTCTGGTGGGTGTATGTCTAGAA` gave a fluorescence intensity of 4720 a.u.
For `TGCGCAACAACTTGGGTCGTGGGTGTATGTCTAGAA`, the fluorescence intensity was 8350 a.u.

Sample 5 — method: DHFR PCA, deep sequencing; matrix: yeast; together with: (+)-ABA 200 µM; relative to: wild-type fitted maximum; reading: higher = stronger binding
Target: ABI1, truncated, D143A, DHFR fusion (Arabidopsis thaliana)
Notes: methotrexate growth selection, single substitutions
Starting sequence: PYL1, truncated, DHFR fusion (Arabidopsis thaliana); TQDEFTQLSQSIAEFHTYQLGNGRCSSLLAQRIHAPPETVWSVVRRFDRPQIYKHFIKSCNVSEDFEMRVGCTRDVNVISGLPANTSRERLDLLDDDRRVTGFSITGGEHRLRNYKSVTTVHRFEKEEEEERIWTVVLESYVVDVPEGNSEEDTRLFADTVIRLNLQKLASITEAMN
For `E151Q`, “relative binding score” read 97.4%.
`L93Q`: “relative binding score” 102%.
For `I172D`, “relative binding score” read 7.82%.
For `E14K`, “relative binding score” read 95.8%.
`V137H` — result for “relative binding score”: -7.25%.
`I133W`: “relative binding score” 106%.
`E174Y` — result for “relative binding score”: 69.8%.
For `R98G`, “relative binding score” read 93.7%.
`L169S` — result for “relative binding score”: 1.08%.
`D97S` — result for “relative binding score”: 102%.
`L82D` — result for “relative binding score”: -0.925%.
`L138G` — result for “relative binding score”: -10.3%.
`V62S` — result for “relative binding score”: 74.2%.

Sample 6 — method: Sort-seq; measured: YFP reporter; matrix: E. coli; notes: PhoQ-PhoP variant library; together with: 10 µM Mg2+; relative to: high Mg2+ state; reading: higher = stronger signaling
Substance: PhoQ, residues 284 288 289 292 302 303 SSCCRF
The fold induction was 12.1 (PhoP, residues 12 14 15 18 19 SFCSL (Escherichia coli, UniProt P23836)).
It gave 8.61 for fold induction (PhoP, residues 12 14 15 18 19 AYFRS (Escherichia coli, UniProt P23836)).
PhoP, residues 12 14 15 18 19 HHYTI (Escherichia coli, UniProt P23836) — fold induction: 3.26.

Mixed results
The bound/input enrichment of `GGGAGUUCUACAGUCCGACGAUCUGUGAGCGUCUACAGACAGCUCACCAUUUUUGUCCUGUAUCUGUAAACACUUUUUGUUCUCCGUCUUUUUCUUGUAAAAUUGAUGUUCUUUAAAAUCGUUAAUGUAUAACAGGGCUUAUGCAACAGAGGAUUGAGCAUCA` is reported as 0.214 ratio (RING finger protein unkempt homolog, zinc fingers 1-6, SBP tag (UNK, Homo sapiens, UniProt Q9C0B0, residues 30-357); RNA Bind-n-Seq; RNA, in vitro; 100 nM, RNA with constant flanks, ends assumed; relative to: input RNA pool, higher = stronger binding).
